Assay results of several laboratories.
Protocols differ between the studies behind these lines. ± gives the spread as reported.

CCCC[C@H](NC(=O)CNC(=O)CNC(=O)CN1CCN(CC(=O)O)CCN(CC(=O)O)CC1)C(=O)N[C@H]1CC(=O)NCCCC[C@@H](C(N)=O)NC(=O)[C@H](Cc2c[nH]c3ccccc23)NC(=O)[C@H](CCCNC(=N)N)NC(=O)[C@@H](Cc2ccccc2)NC(=O)[C@H](Cc2c[nH]cn2)NC1=O [gallium-67 labelled]
tissue uptake (female C57 mice, B16/F1 melanoma, bone; intravenous, 0.037 MBq, 0.5 h): 1.95 ± 0.08 %ID/g

CCCC[C@H](NC(=O)CNC(=O)CNC(=O)CN1CCN(CC(=O)O)CCN(CC(=O)O)CCN(CC(=O)O)CC1)C(=O)N[C@H]1CC(=O)NCCCC[C@@H](C(N)=O)NC(=O)[C@H](Cc2c[nH]c3ccccc23)NC(=O)[C@H](CCCNC(=N)N)NC(=O)[C@@H](Cc2ccccc2)NC(=O)[C@H](Cc2c[nH]cn2)NC1=O [lutetium-177 labelled]
tissue uptake (C57 mouse, female, stomach; intravenous, 0.037 MBq, 2 h): 1.37 ± 0.45 %ID/g

CC(C)[C@H](NC(=O)[C@@H]1CCCN1C(=O)[C@H](CCCNC(=N)N)NC(=O)[C@H](CS)NC(=O)[C@H](Cc1c[nH]c2ccccc12)NC(=O)[C@H](CCCNC(=N)N)NC(=O)[C@@H](Cc1ccccc1)NC(=O)[C@H](Cc1c[nH]cn1)NC(=O)[C@H](CCC(=O)O)NC(=O)[C@H](CS)NC(=O)[C@H](CS)NC(=O)[C@@H]1CC(=O)N[C@@H](CCCNC(=N)N)C(=O)NCC(=O)N[C@@H](CC(=O)O)C(=O)N[C@H](Cc2ccc(O)cc2)C(=O)N1)C(N)=O [technetium-99m labelled]
tissue uptake (C57 mouse, female, B16/F1 melanoma, skin; intravenous, 0.037 MBq, 2 h): 1.25 ± 0.31 %ID/g

CN(C)c1ccc(-c2nc3ccc(OCCCCCN4CCN5CCN(CC4)CC(=O)[O][Al]([18F])[O]C(=O)C5)cc3s2)cc1
tissue uptake (ICR mouse, liver; intravenous, 2 min): 37.7 ± 3.47 %ID/g

CN1C(=O)[C@@H](Cc2ccc(O)c(I)c2)NC(=O)CNC(=O)[C@H](Cc2ccc3ccccc3c2)NC(=O)[C@H](CCCNC(=N)N)NC(=O)[C@H]1CCCNC(=O)c1ccc(CNC(=O)CN2CCN(CC(=O)O)CCN(CC(=O)O)CCN(CC(=O)O)CC2)cc1 [lutetium-177 labelled]
tissue uptake (item: 177Lu radioactivity; female CB-17 SCID mice, Daudi xenograft, spleen; intravenous, 0.16 nmol per mouse, 6 h): 1.35 ± 0.41 %ID/g

[64Cu+2].c1ccc(CNCc2ccc(CN3CCCN4CCNCCCN(CC4)CC3)cc2)nc1
tissue uptake (CXCR4; NOD/SCID mouse, U87 and U87-stb-CXCR4 xenografts, blood; iv, 30 min, ex vivo): 3.9 ± 0.57 %ID/g

N#CCc1cccc(Cl)c1-c1ccc2[nH][11c](=O)[nH]c2c1
brain uptake increase (P-glycoprotein and Bcrp; ex vivo brain uptake; mouse; injection, 5 min, together with: tariquidar and Ko143; reference: without inhibitors): 186%

CC(C)[C@H](NC(=O)[C@@H]1CCCN1C(=O)[C@H](CCCNC(=N)N)NC(=O)[C@H](CS)NC(=O)[C@H](Cc1c[nH]c2ccccc12)NC(=O)[C@H](CCCNC(=N)N)NC(=O)[C@@H](Cc1ccccc1)NC(=O)[C@H](Cc1c[nH]cn1)NC(=O)[C@H](CCC(=O)O)NC(=O)[C@H](CS)NC(=O)[C@H](CS)NC(=O)CNC(=O)[C@@H]1CC(=O)N[C@@H](CCCNC(=N)N)C(=O)NCC(=O)N[C@@H](CC(=O)O)C(=O)N[C@H](Cc2ccc(O)cc2)C(=O)N1)C(N)=O [technetium-99m labelled]
tissue uptake (C57 mouse, female, B16/F1 melanoma, skin; intravenous, 0.037 MBq, 24 h): 0.34 ± 0.16 %ID/g

Cn1c(=O)oc2ccc(-c3ccc(CC(C#N)NC(=O)C4CNCCCO4)c(F)c3)cc21 (stereo not shown)
bilirubin increased incidence (human; oral, 20 mg once daily, TEAE, multiple ascending dose): 0%

[64Cu+2].c1cnc(CNCc2ccc(CN3CCCN4CCNCCCN(CC4)CC3)cc2)nc1
tissue uptake (CXCR4; NOD/SCID mouse, U87 and U87-stb-CXCR4 xenografts, kidney; iv, 90 min, ex vivo): 35.3 ± 2.15 %ID/g

O=C([O-])CN1CCN(CC(=O)[O-])CCN(CC(=O)NCCc2ccc3c(c2)C2C=CCC2C(c2cc4c(cc2Br)OCO4)N3)CCN(CC(=O)[O-])CC1.[111In+3] (stereo not shown)
tissue uptake (mouse, Hec50 endometrial tumour, uterus; 0.5 h post injection): 1.46 ± 0.23 %ID/g

O=C(O)C1CN(Cc2ccc(-c3noc(-c4ccc(OCC[18F])c(C(F)(F)F)c4)n3)cc2)C1
tissue uptake (male Sprague-Dawley rat, kidney; intravenous, 60 min): 1.12 ± 0.052 %ID/g

OCc1cn(Cc2ccc(-c3noc(-c4ccc(OCC[18F])c(C(F)(F)F)c4)n3)cc2)nn1
tissue uptake (Lewis rat, female, bone; intravenous, 1 h): 0.45 ± 0.01 %ID/g

O=C([O-])CN1CCN(CC(=O)[O-])CCN(CC(=O)[O-])CCN(CC(=O)[O-])CC1.[64Cu+2]
tissue uptake (healthy athymic nude mice, liver; intravenous, 24 h): 1.04 %ID/g

CCCC[C@@H]1NC(=O)[C@@H](NC(=O)[C@H](CCC(=O)O)NC(=O)CNC(=O)CN2CCN(CC(=O)O)CCN(CC(=O)O)CCN(CC(=O)O)CC2)CCCCNC(=O)C[C@@H](C(N)=O)NC(=O)[C@H](C(C)C)NC(=O)[C@@H]2CCCN2C(=O)[C@H](CCCNC(=N)N)NC(=O)CNC(=O)[C@H](Cc2c[nH]c3ccccc23)NC(=O)[C@H](CCCNC(=N)N)NC(=O)[C@@H](Cc2ccccc2)NC(=O)[C@H](Cc2c[nH]cn2)NC(=O)[C@H](CCC(=O)O)NC1=O [gallium-67 labelled]
tissue uptake (normal C57 mice, bone; intravenous, 0.037 MBq/mouse, 4 h): 0.42 ± 0.16 %ID/g

CCCC[C@H](NC(=O)CNC(=O)CNC(=O)CN1CCN(CC(=O)O)CCN(CC(=O)O)CC1)C(=O)N[C@H]1CC(=O)NCCCC[C@@H](C(N)=O)NC(=O)[C@H](Cc2c[nH]c3ccccc23)NC(=O)[C@H](CCCNC(=N)N)NC(=O)[C@@H](Cc2ccccc2)NC(=O)[C@H](Cc2c[nH]cn2)NC1=O [copper-64 labelled]
tissue uptake (female C57 mouse, B16/F1 melanoma, brain; intravenous, 0.037 MBq, 4 h): 0.07 ± 0.04 %ID/g

N=C(N)NCCC[C@@H]1NC(=O)[C@H](CCCCNC(=O)CNC(=O)CNC(=O)CNC(=O)CC[C@H](NC(=O)CNC(=O)CNC(=O)CNC(=O)CC[C@H](NC(=O)CN2CCN(CC(=O)O)CCN(CC(=O)O)CCN(CC(=O)O)CC2)C(=O)NCC(=O)NCC(=O)NCC(=O)N[C@@H](CCC(=O)NCC(=O)NCC(=O)NCC(=O)NCCCC[C@@H]2NC(=O)[C@@H](Cc3ccccc3)NC(=O)[C@H](CC(=O)O)NC(=O)CNC(=O)[C@H](CCCNC(=N)N)NC2=O)C(=O)NCC(=O)NCC(=O)NCC(=O)NCCCC[C@@H]2NC(=O)[C@@H](Cc3ccccc3)NC(=O)[C@H](CC(=O)O)NC(=O)CNC(=O)[C@H](CCCNC(=N)N)NC2=O)C(=O)NCC(=O)NCC(=O)NCC(=O)NCCCC[C@@H]2NC(=O)[C@@H](Cc3ccccc3)NC(=O)[C@H](CC(=O)O)NC(=O)CNC(=O)[C@H](CCCNC(=N)N)NC2=O)NC(=O)[C@@H](Cc2ccccc2)NC(=O)[C@H](CC(=O)O)NC(=O)CNC1=O [indium-111 labelled]
tissue uptake (female athymic nu/nu mice, heart; intravenous, 72 h): 0.51 ± 0.16 %ID/g

NC12CNCCNCC(NCc3ccc(CNC(=O)CCCC(=O)NCc4ccc(-c5nncnn5)cc4)cc3)(CNCCNC1)CNCCNC2.[64Cu+2]
tissue uptake (athymic nude mice, SW1222 xenograft, stomach, with contents; 24 h p.i., huA33-TCO pretargeting, 24 h interval): 0.28 ± 0.07 %ID/g

CCCC[C@H](NC(=O)CNC(=O)CNC(=O)CN1CCN(CC(=O)O)CCN(CC(=O)O)CCN(CC(=O)O)CC1)C(=O)N[C@H]1CC(=O)NCCCC[C@@H](C(N)=O)NC(=O)[C@H](Cc2c[nH]c3ccccc23)NC(=O)[C@H](CCCNC(=N)N)NC(=O)[C@@H](Cc2ccccc2)NC(=O)[C@H](Cc2c[nH]cn2)NC1=O [copper-64 labelled]
tissue uptake (C57 mouse B16/F1 melanoma, heart; 4 h): 1.45 ± 0.13 %ID/g

A few entries again:
CCCC[C@H](NC(=O)CNC(=O)CNC(=O)CN1CCN(CC(=O)O)CCN(CC(=O)O)CC1)C(=O)N[C@H]1CC(=O)NCCCC[C@@H](C(N)=O)NC(=O)[C@H](Cc2c[nH]c3ccccc23)NC(=O)[C@H](CCCNC(=N)N)NC(=O)[C@@H](Cc2ccccc2)NC(=O)[C@H](Cc2c[nH]cn2)NC1=O [gallium-67 labelled]
tissue uptake (female C57 mice, B16/F1 melanoma, bone; intravenous, 0.037 MBq, 0.5 h): 1.95 ± 0.08 %ID/g

O=C([O-])CN1CCN(CC(=O)[O-])CCN(CC(=O)NCCc2ccc3c(c2)C2C=CCC2C(c2cc4c(cc2Br)OCO4)N3)CCN(CC(=O)[O-])CC1.[111In+3] (stereo not shown)
tissue uptake (mouse, Hec50 endometrial tumour, uterus; 0.5 h post injection): 1.46 ± 0.23 %ID/g
